Measurements of several laboratories.
Every numbered part comes from another study and shows a few of its results, in no order. Substitutions count along the parent as printed.

Series 1
Target: Prothrombin, mature alpha-thrombin (F2, Homo sapiens, UniProt P00734)
Method: aptamer microarray, sandwich
Molecule type: DNA with 2'F-ANA
Sample: in vitro
Concentration: 200 nM
Setting: whole 15-mer aptamer, many near background
With: Cy3 exosite-II aptamer, 400 nM
Reading: higher = stronger binding
Sequence: GGTTGGTGTGGTTGG
| Modification | mean fluorescence intensity |
| --- | --- |
| 2'F-ANA at 1 3 6 7 9 10 11 13 15 | 71.7 a.u. |
| 2'F-ANA at 2 4 5 9 10 11 12 14 15 | 49.9 a.u. |
| 2'F-ANA at 5 6 7 10 11 13 14 | 46.2 a.u. |
| 2'F-ANA at 2 3 6 8 9 11 13 15 | 526 a.u. |
| 2'F-ANA at 3 6 14 | 631 a.u. |
| 2'F-ANA at 3 5 6 7 12 14 | 73.9 a.u. |
| 2'F-ANA at 1 5 7 8 9 13 14 | 50.6 a.u. |
| 2'F-ANA at 1 5 7 8 | 61.7 a.u. |
| 2'F-ANA at 1 2 3 11 12 | 372 a.u. |
| 2'F-ANA at 2 6 8 9 10 12 | 156 a.u. |
| 2'F-ANA at 1 4 8 9 11 13 14 | 50.1 a.u. |
| 2'F-ANA at 1 3 8 9 14 15 | 92.2 a.u. |
| 2'F-ANA at 1 3 5 7 10 11 | 46.1 a.u. |

Series 2
Molecule: PhoQ, residues 284 288 289 292 302 303 TLMATV
Method: Sort-seq
Measured: YFP reporter
Sample: E. coli
Setting: PhoQ-PhoP variant library
With: 10 µM Mg2+
Relative to: high Mg2+ state
Reading: higher = stronger signaling
| target | fold induction |
| --- | --- |
| PhoP, residues 12 14 15 18 19 QYCSL (Escherichia coli, UniProt P23836) | 8.08 |
| PhoP, residues 12 14 15 18 19 STHWV (Escherichia coli, UniProt P23836) | 60.6 |
| PhoP, residues 12 14 15 18 19 SHWTV (Escherichia coli, UniProt P23836) | 10.1 |

Series 3
Target: CCNB2, cyclin fold, Cln2 fusion (human)
Method: yeast growth competition, sequencing
Sample: yeast
Setting: weak parent motif
Relative to: not given
Reading: higher = stronger binding
Parent: CABLES2 docking peptide (human); ICAKRSLCAAFSV; partner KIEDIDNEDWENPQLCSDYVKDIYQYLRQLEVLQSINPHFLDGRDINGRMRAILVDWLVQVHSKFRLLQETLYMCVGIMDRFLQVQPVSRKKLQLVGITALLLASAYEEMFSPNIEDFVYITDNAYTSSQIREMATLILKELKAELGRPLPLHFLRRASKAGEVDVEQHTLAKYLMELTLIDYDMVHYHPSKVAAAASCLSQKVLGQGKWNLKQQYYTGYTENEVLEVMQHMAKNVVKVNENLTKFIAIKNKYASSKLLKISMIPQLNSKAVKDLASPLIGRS
| Substitution | normalised enrichment score |
| --- | --- |
| C8A | 0.382 |
| S12A | 0.335 |
| R5A | -0.089 |
| K4A | -0.242 |
| S6A | 0.414 |

Series 4
Target: Histone acetyltransferase KAT6A, winged helix 2, GST fusion (KAT6A, Homo sapiens, UniProt Q92794, residues 85-181)
Method: protein binding microarray
Molecule type: double-stranded DNA, one strand shown
Sample: in vitro
Concentration: not given
Setting: 8-mer, flanks averaged, mean of 2 arrays, mostly near background
Relative to: not given
Reading: higher = stronger binding
Residues (chain): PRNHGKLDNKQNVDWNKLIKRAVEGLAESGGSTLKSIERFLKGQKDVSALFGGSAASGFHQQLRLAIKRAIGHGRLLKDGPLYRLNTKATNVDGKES
| Sequence | E-score |
| --- | --- |
| AACAAGCA | -0.0311 |
| ACGGCACA | 0.0989 |
| ACGCCCCT | -0.135 |
| CTTATACA | -0.0542 |
| GGTAACAC | -0.011 |
| ACTCCCTC | -0.112 |
| ACTCACCC | 0.00555 |
| CCACTGAG | -0.0137 |
| AGAGGCGA | -0.00282 |
| AATTTACA | -0.0353 |

Repeated from above (series 4):
| Sequence | E-score |
| --- | --- |
| CTTATACA | -0.0542 |
| AATTTACA | -0.0353 |
| ACTCCCTC | -0.112 |
